Measurements of several laboratories.
A part holds a random share of what one study measured. “And” joins repeats or separate records; there may be more than shown.
UniProt P27448, sequence (whole entry, looked up): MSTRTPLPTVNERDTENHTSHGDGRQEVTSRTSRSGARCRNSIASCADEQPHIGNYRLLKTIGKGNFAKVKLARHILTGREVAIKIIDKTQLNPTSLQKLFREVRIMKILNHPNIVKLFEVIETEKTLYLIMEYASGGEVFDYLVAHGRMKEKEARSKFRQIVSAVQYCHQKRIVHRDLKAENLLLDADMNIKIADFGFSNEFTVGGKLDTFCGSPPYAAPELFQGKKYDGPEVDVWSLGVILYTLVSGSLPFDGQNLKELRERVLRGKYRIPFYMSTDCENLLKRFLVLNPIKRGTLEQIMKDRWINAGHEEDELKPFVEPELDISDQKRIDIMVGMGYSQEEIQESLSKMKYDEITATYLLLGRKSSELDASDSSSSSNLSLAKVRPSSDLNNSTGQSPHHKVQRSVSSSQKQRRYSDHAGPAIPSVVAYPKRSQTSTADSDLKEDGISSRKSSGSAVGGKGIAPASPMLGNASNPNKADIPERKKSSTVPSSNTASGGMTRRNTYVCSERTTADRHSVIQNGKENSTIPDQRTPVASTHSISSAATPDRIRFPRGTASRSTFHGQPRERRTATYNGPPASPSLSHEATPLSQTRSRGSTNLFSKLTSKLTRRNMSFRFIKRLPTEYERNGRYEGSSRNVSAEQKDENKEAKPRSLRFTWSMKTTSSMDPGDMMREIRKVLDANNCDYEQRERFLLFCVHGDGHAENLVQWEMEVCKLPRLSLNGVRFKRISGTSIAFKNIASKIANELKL
UniProt Q9Y6R4, sequence (whole entry, looked up): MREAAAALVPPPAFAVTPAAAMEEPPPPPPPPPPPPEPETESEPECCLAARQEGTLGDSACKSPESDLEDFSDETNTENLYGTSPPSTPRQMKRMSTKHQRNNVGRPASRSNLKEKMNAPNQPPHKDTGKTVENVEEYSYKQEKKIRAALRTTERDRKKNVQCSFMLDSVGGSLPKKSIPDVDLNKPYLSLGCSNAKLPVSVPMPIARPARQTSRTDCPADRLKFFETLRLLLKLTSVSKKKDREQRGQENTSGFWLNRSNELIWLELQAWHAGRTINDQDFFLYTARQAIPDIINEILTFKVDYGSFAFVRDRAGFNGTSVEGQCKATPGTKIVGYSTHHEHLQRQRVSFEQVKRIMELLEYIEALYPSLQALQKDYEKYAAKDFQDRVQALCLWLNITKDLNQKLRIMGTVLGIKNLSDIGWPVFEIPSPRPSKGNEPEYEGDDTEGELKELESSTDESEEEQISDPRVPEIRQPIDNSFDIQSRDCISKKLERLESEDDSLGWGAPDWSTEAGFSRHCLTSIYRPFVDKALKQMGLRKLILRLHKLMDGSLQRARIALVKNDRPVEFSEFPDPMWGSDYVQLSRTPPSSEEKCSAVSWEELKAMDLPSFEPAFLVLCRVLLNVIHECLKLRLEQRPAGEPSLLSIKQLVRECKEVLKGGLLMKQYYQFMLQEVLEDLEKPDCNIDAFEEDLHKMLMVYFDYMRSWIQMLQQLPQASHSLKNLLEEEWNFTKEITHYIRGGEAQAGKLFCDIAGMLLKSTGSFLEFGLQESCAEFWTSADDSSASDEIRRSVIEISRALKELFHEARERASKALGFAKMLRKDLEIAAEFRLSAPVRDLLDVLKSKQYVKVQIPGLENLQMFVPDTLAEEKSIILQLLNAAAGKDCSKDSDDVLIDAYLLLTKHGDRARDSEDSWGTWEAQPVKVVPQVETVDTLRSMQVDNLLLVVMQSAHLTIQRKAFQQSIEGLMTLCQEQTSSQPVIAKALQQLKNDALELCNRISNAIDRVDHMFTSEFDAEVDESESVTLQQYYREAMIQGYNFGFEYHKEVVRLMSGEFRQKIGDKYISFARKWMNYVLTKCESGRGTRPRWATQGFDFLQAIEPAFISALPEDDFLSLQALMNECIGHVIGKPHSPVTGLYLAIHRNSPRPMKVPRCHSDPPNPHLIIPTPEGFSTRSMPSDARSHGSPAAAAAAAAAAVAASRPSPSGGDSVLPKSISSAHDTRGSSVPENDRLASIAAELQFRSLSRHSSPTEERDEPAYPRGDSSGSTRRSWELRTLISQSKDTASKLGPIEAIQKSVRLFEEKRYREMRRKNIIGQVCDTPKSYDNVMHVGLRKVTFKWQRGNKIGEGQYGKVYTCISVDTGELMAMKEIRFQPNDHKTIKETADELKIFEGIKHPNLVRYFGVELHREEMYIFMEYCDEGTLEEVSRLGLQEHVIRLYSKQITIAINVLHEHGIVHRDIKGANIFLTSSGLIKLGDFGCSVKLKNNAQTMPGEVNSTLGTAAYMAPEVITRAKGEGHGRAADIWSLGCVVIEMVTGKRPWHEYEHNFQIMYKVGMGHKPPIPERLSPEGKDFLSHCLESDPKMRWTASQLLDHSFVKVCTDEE
UniProt O94768, sequence (whole entry, looked up): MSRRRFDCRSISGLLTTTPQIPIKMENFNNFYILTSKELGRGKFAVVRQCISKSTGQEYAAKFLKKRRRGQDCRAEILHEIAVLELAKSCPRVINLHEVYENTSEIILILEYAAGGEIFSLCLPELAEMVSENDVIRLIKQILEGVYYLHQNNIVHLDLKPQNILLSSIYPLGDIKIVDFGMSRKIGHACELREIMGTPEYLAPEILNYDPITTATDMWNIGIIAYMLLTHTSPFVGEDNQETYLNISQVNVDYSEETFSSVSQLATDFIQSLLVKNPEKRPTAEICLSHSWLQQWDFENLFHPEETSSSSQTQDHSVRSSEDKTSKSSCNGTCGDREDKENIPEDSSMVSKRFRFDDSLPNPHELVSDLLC
UniProt Q96PN8, sequence (whole entry, looked up): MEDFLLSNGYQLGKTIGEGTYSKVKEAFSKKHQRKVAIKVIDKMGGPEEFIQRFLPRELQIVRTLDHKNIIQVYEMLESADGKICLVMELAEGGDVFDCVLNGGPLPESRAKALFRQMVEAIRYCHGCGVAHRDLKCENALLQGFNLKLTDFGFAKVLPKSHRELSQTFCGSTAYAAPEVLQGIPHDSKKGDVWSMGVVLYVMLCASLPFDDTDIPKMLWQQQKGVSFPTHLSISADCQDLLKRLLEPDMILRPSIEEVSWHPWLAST

Block 1
Structure (SMILES): CC[C@@]1(c2cccc(C(F)(F)F)c2)C2=C(Nc3n[nH]cc31)[C@H](F)C(C)(C)CC2=O (single isomer, unassigned)
Concentration: 1 µM
| target | assay | how to read | remaining binding |
| --- | --- | --- | --- |
| MAP3K19 (Homo sapiens, UniProt Q56UN5) | kinase binding, KINOMEscan | baseline: DMSO control | 67% |
| ERN1 (Homo sapiens, UniProt O75460) | binding, competition with immobilised ligand |  | 100% |
| MARK3 (Homo sapiens, UniProt P27448) | kinase binding, KINOMEscan | baseline: DMSO control | 91% |
| PAK2 (Homo sapiens, UniProt Q13177) | kinase binding, KINOMEscan | baseline: DMSO control | 100% |
| PTK2 (Homo sapiens, UniProt Q05397) | kinase binding, KINOMEscan | baseline: DMSO control | 96% |
| Aurora kinase A (AURKA, Homo sapiens, UniProt O14965) | kinase binding, KINOMEscan | baseline: DMSO control | 100% |
| TSSK3 (Homo sapiens, UniProt Q96PN8) | kinase binding, KINOMEscan | baseline: DMSO control | 100% |
| MAP3K4 (Homo sapiens, UniProt Q9Y6R4) | binding, competition with immobilised ligand |  | 100% |
| RET (Homo sapiens, UniProt P07949) | kinase binding, KINOMEscan | baseline: DMSO control | 86% |
| STK17B (Homo sapiens, UniProt O94768) | kinase binding, KINOMEscan | baseline: DMSO control | 99% |
| Tyrosine-protein kinase ABL1, phosphorylated (ABL1, Homo sapiens, UniProt P00519, T315I) | kinase binding, KINOMEscan | baseline: DMSO control | 100% |
| PI4KB (Homo sapiens, UniProt Q9UBF8) | binding, competition with immobilised ligand |  | 100% |
| COQ8B (Homo sapiens, UniProt Q96D53) | kinase binding, KINOMEscan | baseline: DMSO control | 100% |

Block 2
Compound: C[C@@H]1CN(c2ccc(-c3cc(C(=O)NCCOCCOCCOCCOCCNC(=O)Cn4cc(-c5[nH]cc(C(=O)N[C@@H](CC(N)=O)c6ccc(F)c(Cl)c6)c5-c5ccc(Cl)cc5F)cn4)ccc3F)cc2NC(=O)c2c[nH]c(=O)cc2C(F)(F)F)C[C@H](C)N1C
Observed: thermal unfolding
Method: differential scanning fluorimetry
Concentration: 5.5 µM
Reading: higher = more unfolded
DCAF1: DDB1- and CUL4-associated factor 1 (DCAF1, Homo sapiens, UniProt Q9Y4B6)
UniProt Q9Y4B6, sequence (whole entry, looked up): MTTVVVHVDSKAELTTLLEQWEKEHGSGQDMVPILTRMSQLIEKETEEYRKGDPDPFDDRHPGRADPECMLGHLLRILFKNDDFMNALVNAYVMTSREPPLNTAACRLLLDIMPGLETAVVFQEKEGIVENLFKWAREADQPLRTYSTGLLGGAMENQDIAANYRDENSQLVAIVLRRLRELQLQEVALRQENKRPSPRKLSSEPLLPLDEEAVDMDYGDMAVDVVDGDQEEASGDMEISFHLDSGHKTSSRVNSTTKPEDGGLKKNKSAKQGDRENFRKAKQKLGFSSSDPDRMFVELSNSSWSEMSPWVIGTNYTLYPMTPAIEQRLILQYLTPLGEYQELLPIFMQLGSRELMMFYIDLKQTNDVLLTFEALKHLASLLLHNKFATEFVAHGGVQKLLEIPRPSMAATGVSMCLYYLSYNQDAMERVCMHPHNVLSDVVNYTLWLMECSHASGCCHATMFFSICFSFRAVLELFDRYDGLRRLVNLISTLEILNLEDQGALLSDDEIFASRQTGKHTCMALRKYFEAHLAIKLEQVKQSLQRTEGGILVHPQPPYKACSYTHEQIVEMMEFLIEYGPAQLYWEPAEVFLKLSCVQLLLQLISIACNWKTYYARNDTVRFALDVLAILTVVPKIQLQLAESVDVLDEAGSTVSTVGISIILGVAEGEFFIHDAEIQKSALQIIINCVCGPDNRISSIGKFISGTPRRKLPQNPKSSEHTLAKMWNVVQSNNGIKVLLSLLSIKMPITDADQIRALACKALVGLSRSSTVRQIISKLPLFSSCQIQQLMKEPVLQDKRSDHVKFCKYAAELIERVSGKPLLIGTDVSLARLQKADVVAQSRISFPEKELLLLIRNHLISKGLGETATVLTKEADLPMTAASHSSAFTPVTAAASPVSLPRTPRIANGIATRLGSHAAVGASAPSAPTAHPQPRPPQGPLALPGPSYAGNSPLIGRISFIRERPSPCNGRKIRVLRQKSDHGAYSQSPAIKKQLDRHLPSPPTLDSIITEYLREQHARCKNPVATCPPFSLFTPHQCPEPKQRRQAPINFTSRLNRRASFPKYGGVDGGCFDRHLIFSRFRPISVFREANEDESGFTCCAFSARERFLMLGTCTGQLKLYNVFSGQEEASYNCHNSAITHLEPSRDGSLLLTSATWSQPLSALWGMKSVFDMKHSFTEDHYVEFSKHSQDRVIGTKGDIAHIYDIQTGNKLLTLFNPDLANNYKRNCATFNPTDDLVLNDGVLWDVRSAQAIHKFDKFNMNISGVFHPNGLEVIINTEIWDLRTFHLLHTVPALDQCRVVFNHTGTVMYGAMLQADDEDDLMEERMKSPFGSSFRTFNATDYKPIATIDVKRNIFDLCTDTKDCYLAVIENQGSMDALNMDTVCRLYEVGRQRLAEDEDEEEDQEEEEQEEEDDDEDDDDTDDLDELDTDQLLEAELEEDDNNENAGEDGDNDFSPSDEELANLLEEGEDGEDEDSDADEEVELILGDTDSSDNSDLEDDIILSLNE
WDR5: WD repeat-containing protein 5 (WDR5, Homo sapiens, UniProt P61964)
| target | conditions | SYPRO Orange fluorescence [a.u.] |
| --- | --- | --- |
| DCAF1 | 66.81 °C | 56800 |
| WDR5 | 52.81 °C | 14400 |
| WDR5 | 28 °C | 14900 |
| WDR5 | 25.4 °C | 14700 |
| WDR5 | 30.2 °C | 15000 |
| DCAF1 | 68.21 °C | 56000 |
| WDR5 | 30.4 °C | 15000 |

Further values, each from its own experiment
PKMYT1: Membrane-associated tyrosine- and threonine-specific cdc2-inhibitory kinase (PKMYT1, Homo sapiens, UniProt Q99640)
UniProt Q99640, sequence (whole entry, looked up): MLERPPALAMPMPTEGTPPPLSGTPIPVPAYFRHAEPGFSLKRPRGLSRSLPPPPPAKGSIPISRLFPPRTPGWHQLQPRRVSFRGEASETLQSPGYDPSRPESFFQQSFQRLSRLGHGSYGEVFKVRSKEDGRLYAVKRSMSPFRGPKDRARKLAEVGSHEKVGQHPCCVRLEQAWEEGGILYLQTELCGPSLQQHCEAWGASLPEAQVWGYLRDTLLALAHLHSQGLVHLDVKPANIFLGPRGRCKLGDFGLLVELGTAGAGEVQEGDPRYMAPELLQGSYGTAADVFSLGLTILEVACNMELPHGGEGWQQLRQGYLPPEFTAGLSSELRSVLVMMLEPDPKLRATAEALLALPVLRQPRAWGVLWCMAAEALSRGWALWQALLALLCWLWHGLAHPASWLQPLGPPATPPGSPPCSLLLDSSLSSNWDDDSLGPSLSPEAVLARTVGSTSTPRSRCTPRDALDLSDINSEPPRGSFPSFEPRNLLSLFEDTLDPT
| Compound | tested on | assay | test system | conditions | how to read | measurement | result |
| --- | --- | --- | --- | --- | --- | --- | --- |
| Cc1ccc(O)c(C)c1-c1cnc2[nH]c(-c3cnc(N4CCC5(CC4)CC(N4CCN(c6ccc(NC7CCC(=O)NC7=O)cc6F)CC4)CO5)nc3)cc2c1C#N (centres unmarked) | PKMYT1 | degrader, measured: PKMYT1 protein | HuCCT-1 |  |  | Dmax | 83% |
| Cc1ncsc1-c1ccc(C2(NC(=O)C3CC(O)CN3C(=O)C(NC(=O)c3ccc(COc4c(-c5c(C)c(F)cc6[nH]ncc56)c(C5CC5)cc5c(N6CC7CC6CN7)nc(OC6CCOCC6)nc45)cc3)C(C)(C)C)CC2)cc1 (centres unmarked) | von Hippel-Lindau disease tumor suppressor, with Elongin B/C (VHL, Homo sapiens, UniProt P40337) | SPR, single-cycle | immobilized VCB complex | binary |  | Kd | 2560 nM and 1310 nM and 904 nM |
| Cc1ccc(O)c(C)c1-c1cnc2[nH]c(-c3cnc(N4CCC(CN5CCN(c6ccc(NC7CCC(=O)NC7=O)cc6F)CC5)CC4)nc3)cc2c1C#N (centres unmarked) |  | ultracentrifugation | mouse plasma | 2 µM, 4 h, pH 7.4 |  | fraction unbound | 0.022 |
| Cc1nc(C)c(C=[N+]([O-])C(C)(C)C)nc1C |  |  | primary cerebellar granule neurons, rat | 300 µM, 2 h, added: MPP+ | baseline: untreated control | ATP content | 57.5% and 60.3% and 54.2% |
| Cc1ccc(O)c(C)c1-c1cnc2[nH]c(-c3cnc(N4CCC(CN5CCN(c6ccc7c(c6)CN(C6CCC(=O)NC6=O)C7=O)CC5)CC4)nc3)cc2c1C#N (centres unmarked) |  |  | female CD-1 mouse, plasma | oral, 10 mg/kg |  | half-life | 1.5 h |
| Cc1ccc(O)c(C)c1-c1cnc2[nH]c(-c3cnc(N4CCC(CCN5CCN(c6cc7c(cc6F)c(N6CCC(=O)NC6=O)nn7C)CC5)CC4)nc3)cc2c1C#N | PKMYT1 | binding, HTRF |  | 1000 nM |  | inhibition | 100% |

Some of these lines once more (block 2):
| target | conditions | SYPRO Orange fluorescence [a.u.] |
| --- | --- | --- |
| WDR5 | 30.4 °C | 15000 |
| WDR5 | 28 °C | 14900 |
